Measurements of several laboratories.
Numbered parts are unrelated; each lists some results of a single study.
UniProt Q13464, sequence (whole entry, looked up): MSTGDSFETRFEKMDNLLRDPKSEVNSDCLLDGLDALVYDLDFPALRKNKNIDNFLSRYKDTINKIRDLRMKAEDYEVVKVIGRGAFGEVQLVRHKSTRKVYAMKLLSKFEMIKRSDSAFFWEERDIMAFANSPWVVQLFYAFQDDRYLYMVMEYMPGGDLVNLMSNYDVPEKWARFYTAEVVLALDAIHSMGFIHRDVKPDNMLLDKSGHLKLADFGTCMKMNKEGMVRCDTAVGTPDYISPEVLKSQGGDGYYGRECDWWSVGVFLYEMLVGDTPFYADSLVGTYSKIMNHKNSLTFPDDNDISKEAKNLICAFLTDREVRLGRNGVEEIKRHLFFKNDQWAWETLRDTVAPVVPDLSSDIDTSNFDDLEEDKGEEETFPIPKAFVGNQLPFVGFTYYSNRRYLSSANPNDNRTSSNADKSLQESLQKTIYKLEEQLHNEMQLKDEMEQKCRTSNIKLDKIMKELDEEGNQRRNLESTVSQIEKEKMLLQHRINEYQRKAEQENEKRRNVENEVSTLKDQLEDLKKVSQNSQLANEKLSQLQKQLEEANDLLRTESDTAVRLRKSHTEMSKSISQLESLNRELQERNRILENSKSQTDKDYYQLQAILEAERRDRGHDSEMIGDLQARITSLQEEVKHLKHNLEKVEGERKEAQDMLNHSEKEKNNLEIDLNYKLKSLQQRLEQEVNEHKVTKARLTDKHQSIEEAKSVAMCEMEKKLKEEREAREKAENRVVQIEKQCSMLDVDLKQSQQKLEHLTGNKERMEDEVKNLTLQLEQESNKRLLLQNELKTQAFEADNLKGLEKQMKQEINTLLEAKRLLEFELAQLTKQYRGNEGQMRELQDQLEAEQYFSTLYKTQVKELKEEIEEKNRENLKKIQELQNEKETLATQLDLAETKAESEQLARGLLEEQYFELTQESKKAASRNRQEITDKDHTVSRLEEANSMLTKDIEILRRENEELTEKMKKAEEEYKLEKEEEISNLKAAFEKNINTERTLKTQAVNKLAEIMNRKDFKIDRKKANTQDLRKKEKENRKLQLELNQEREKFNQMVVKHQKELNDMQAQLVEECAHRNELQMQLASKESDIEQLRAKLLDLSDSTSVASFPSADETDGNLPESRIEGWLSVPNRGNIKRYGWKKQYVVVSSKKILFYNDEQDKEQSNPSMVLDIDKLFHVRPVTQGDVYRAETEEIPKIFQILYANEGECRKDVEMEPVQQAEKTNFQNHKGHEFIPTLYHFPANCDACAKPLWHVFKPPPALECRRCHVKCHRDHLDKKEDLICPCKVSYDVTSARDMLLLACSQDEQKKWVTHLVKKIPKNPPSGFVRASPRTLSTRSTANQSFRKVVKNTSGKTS
UniProt P51956, sequence (whole entry, looked up): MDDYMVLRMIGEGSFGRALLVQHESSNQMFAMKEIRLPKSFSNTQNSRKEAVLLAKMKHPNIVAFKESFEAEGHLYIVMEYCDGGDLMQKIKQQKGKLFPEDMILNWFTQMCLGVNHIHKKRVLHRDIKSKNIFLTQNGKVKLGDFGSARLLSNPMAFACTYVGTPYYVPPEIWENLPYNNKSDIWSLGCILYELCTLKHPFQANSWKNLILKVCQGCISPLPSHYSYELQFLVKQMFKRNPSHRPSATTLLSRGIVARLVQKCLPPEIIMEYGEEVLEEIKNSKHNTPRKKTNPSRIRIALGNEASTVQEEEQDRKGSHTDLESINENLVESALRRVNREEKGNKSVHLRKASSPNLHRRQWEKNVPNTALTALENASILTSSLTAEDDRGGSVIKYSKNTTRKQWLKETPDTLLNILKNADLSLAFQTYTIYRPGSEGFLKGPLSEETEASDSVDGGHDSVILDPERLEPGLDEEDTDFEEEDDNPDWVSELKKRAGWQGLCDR
UniProt Q13237, sequence (whole entry, looked up): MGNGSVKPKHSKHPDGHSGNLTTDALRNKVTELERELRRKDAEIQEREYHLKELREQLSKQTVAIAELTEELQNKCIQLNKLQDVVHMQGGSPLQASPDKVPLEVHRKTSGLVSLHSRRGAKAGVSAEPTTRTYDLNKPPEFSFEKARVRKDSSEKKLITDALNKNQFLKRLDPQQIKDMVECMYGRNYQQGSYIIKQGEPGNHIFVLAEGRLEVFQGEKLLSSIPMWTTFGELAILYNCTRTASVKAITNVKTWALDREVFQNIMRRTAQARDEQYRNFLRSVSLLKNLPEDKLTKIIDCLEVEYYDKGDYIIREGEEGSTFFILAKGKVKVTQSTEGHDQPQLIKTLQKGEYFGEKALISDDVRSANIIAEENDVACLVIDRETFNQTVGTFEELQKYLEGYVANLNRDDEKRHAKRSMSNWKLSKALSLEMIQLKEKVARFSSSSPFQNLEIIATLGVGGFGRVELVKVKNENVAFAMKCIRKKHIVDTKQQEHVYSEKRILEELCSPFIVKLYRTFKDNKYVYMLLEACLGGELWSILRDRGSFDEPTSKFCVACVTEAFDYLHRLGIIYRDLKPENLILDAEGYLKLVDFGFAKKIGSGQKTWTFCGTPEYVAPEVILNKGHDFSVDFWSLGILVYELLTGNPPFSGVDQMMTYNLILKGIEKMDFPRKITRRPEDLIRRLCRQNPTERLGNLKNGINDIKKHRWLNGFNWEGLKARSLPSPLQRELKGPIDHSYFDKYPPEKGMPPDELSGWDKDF
UniProt Q16832, sequence (whole entry, looked up): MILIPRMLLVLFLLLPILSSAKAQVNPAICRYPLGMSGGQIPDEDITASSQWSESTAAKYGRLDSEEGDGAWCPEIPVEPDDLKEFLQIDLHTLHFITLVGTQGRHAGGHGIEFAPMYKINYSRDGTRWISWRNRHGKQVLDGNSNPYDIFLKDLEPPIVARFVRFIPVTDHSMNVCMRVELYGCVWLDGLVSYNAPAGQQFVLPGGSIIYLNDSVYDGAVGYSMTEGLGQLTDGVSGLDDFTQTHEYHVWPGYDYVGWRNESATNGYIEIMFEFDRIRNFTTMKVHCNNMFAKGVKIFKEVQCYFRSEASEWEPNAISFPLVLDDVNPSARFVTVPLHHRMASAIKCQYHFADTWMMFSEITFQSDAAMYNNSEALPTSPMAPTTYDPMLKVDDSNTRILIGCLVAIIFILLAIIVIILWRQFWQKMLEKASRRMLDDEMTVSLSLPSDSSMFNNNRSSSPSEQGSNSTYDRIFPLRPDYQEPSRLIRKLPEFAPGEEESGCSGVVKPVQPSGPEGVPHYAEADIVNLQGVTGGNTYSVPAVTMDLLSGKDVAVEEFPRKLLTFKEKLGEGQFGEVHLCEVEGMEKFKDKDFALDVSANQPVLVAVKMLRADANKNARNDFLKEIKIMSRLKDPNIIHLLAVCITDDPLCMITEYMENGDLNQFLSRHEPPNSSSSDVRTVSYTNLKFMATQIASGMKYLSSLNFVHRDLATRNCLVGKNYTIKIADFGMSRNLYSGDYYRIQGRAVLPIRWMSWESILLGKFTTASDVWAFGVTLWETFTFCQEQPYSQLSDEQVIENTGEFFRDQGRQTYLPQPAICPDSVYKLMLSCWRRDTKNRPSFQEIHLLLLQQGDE
UniProt P06493, sequence (whole entry, looked up): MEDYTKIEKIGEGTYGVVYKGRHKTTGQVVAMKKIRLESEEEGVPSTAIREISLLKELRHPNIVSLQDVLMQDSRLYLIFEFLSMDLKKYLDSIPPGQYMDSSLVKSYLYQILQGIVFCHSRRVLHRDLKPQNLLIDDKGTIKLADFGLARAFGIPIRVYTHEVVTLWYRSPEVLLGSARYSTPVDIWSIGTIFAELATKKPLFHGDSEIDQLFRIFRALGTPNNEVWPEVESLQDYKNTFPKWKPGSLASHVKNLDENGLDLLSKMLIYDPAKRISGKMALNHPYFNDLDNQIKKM
UniProt Q9HAZ1, sequence (whole entry, looked up): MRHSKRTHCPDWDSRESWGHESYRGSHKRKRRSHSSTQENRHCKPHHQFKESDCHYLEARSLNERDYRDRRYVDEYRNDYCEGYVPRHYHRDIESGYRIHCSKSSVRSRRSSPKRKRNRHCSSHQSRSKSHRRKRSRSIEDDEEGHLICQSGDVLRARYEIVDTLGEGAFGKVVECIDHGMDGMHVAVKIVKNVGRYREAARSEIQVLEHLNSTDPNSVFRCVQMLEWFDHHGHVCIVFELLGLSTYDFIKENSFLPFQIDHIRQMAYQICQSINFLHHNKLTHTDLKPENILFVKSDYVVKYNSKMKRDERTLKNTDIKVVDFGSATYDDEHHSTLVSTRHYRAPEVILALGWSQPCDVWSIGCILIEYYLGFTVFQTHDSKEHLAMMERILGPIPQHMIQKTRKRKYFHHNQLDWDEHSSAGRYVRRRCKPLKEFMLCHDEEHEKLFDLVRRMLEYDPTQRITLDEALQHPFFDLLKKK
UniProt Q6P2M8, sequence (whole entry, looked up): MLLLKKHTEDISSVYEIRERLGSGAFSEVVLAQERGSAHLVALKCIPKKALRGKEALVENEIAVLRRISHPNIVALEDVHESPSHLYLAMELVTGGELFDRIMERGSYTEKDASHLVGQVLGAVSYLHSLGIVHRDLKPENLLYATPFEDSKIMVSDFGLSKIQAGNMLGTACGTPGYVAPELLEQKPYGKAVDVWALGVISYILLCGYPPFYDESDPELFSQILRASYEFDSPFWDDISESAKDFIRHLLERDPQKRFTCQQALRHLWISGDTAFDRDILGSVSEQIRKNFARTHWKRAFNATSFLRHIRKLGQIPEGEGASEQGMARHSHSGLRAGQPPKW

Sample 1 — method: phase 2a trial; species: idiopathic pulmonary fibrosis patients
Structure (SMILES): CC(C)n1cnc(-c2ccc(F)cc2)c1-c1ncc(C(=O)Nc2ccc(N3CCN(C)CC3)cc2)[nH]1
dose | setting | supraventricular extrasystole patients
30 mg once daily | grade 4 emergent event | 0%
60 mg once daily | grade 5 emergent event | 0%
30 mg once daily | grade 2 emergent event | 0%
60 mg once daily | grade 1 emergent event | 0%
30 mg once daily | grade 5 emergent event | 0%
all arms | grade 3 emergent event | 0%

Sample 2 — method: protein-binding microarray; form: double-stranded DNA, one strand shown; sample: in vitro; concentration: 0.8 µM; setting: whole 60-bp probe, no competitor; reading: higher = stronger binding; all sequences stand within: … GTCTTGATTCGCTTGACGCTGCTG
Target: Centromere-binding protein 1, full length, N-terminal tag (CBF1, Saccharomyces cerevisiae, UniProt P17106, residues 1-351)
UniProt P17106, sequence (whole entry, looked up): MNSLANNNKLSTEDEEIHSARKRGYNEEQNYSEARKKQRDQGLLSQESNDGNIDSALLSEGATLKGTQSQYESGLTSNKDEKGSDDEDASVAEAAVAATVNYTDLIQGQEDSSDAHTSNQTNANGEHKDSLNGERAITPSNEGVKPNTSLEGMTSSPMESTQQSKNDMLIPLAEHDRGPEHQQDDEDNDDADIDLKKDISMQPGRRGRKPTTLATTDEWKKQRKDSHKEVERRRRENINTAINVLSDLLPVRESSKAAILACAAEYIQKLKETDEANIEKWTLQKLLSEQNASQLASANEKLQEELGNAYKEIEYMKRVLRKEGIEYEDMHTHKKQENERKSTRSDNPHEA
Sequence | fluorescence intensity [a.u.]
TGTACGAAGCTATGCCACGAAATTATAGTAGTTAGG | 549
GAATATGGCGAATTTTACGTCACCGCCTCATGATAG | 527
GAAAATCAAGAATGTCACCAATTTTCTGCGATATAG | 514
CTAAGGATCGTCCGTGACATGAGTGTTTTTTTTTTC | 599
CTAAACTTTCAACATCAGGCTCTTTTCGTTTTATTC | 512
TGTACGAAGCTATTTTTCGTGAGTATAGTAGTTAGG | 551
GAAAGCGGCGTTTTGTTCGTGGGACTCACACTTTAG | 503
GAATCTGGCAGGCACCACATGGGTAGAGAATAATAG | 624

Sample 3 — read-out: enzyme activity; action: inhibitor; concentration: 0.5 µM; relative to: control
Compound: CCN(CC)C(=O)c1ccc(Nc2nc(OCC3CCCCC3)c3[nH]cnc3n2)cc1
target | remaining activity
PNCK (Homo sapiens, UniProt Q6P2M8) | 117%
MAPK11 (Homo sapiens, UniProt Q15759) | 85.5%
PAK3 (Homo sapiens, UniProt O75914) | 87.7%
AKT2 (Homo sapiens, UniProt P31751) | 92%
PRKG2 (Homo sapiens, UniProt Q13237) | 80%
Cyclin-dependent kinase 1, with cyclin A (CDK1, Homo sapiens, UniProt P06493) | 95.2%
RPS6KA4 (Homo sapiens, UniProt O75676) | 79.8%
CLK4 (Homo sapiens, UniProt Q9HAZ1) | 44.2%
MARK4 (Homo sapiens, UniProt Q96L34) | 93.8%
NEK3 (Homo sapiens, UniProt P51956) | 69.4%
MAP2K1 (Homo sapiens, UniProt Q02750) | 94.1%
ROCK1 (Homo sapiens, UniProt Q13464) | 54.9%

Sample 4 — read-out: cell-free assay; method: competition with immobilised ligand; concentration: 1 µM
Compound: CCCCN(CCCC)C(=O)CN1C[C@H](c2cc(OC)c3c(c2)OCO3)[C@@H](C(=O)O)[C@@H]1CC(C)(C)CCC
target | remaining binding
EGFR (Homo sapiens, UniProt P00533, A750P/del747-749) | 94.3%
FLT3 (Homo sapiens, UniProt P36888, D835V) | 57.4%
CDK18 (Homo sapiens, UniProt Q07002) | 100%
CHUK (Homo sapiens, UniProt O15111) | 56.2%
DDR2 (Homo sapiens, UniProt Q16832) | 76.6%

For quick reference, copied from above (sample 1):
dose | setting | supraventricular extrasystole patients
all arms | grade 3 emergent event | 0%
60 mg once daily | grade 1 emergent event | 0%
30 mg once daily | grade 5 emergent event | 0%
30 mg once daily | grade 4 emergent event | 0%
